Experimental data of several laboratories.
Parts stem from different laboratories: compare values within a part only.

Study 1
Target: Histone acetyltransferase KAT6A, winged helix 2, GST fusion (KAT6A, Homo sapiens, UniProt Q92794, residues 85-181)
Technique: protein binding microarray
Form: double-stranded DNA, one strand shown
Matrix: in vitro
Tested at: not given
Notes: 8-mer, flanks averaged, mean of 2 arrays, mostly near background
Relative to: not given
Reading: higher = stronger binding
Target sequence (chain): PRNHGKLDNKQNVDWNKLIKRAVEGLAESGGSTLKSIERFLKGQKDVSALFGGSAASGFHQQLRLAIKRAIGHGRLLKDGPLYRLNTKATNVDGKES
Strand	E-score
CGAGTAAC	0.0755
AGTATTGG	-0.0613
AACAGTTA	-0.0404
CATGAAGC	0.0644
TCTCTGAA	-0.0354
ACTACAGC	-0.0909
AGACGGGA	0.00279
AGCAACTG	0.0615
AGATGTTA	-0.167
ACATAAGA	0.152
CTGGATGC	0.0279
CCAGACGC	-0.0316
CGTCTCAA	-0.0681
ATGTAGCA	0.0591
AACGGAAA	-0.0852
GCGCTGCC	0.203
AAGAAATT	0.214
CGGAGCCG	0.251
CTTCGCCC	0.00847
GTAAGTGA	0.0374
TAGTGCCA	0.0784
AGGGCTAA	0.065
ATTGCCTG	0.0714
TAGGCGCA	0.124
AAGATTAG	-0.032

Study 2
Target: Centromere-binding protein 1, full length, N-terminal tag (CBF1, Saccharomyces cerevisiae, UniProt P17106, residues 1-351)
Chain of UniProt P17106 (whole entry, looked up): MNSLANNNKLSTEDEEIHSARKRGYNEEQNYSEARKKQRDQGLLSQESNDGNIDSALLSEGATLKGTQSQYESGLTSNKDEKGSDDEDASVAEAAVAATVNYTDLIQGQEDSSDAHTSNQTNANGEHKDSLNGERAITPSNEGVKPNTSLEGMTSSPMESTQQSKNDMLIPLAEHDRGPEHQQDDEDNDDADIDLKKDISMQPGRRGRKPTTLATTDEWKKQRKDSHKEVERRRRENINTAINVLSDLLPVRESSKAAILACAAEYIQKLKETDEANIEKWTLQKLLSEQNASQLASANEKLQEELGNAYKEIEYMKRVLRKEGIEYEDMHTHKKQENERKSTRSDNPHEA
Technique: protein-binding microarray
Form: double-stranded DNA, one strand shown
Matrix: in vitro
Tested at: 0.8 µM
Notes: whole 60-bp probe, no competitor
Reading: higher = stronger binding
Strand	fluorescence intensity
CTACGCGATGTTGCAAGCGTGACAGATCTATACTTCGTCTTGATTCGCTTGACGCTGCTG	673 a.u.
GAAACCGTATTATGCGACGTGCTTGCGATCCTTTAGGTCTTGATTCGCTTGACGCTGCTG	542 a.u.
TGTACGAAGCTATGTCACGTGGATATAGTAGTTAGGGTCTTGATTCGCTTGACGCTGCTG	13200 a.u.
CTAGTTTATCAATAACGTGTGCATCGTCGATATTTCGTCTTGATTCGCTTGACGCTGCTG	584 a.u.
TGTACGAAGCTATCCCACACGGGTATAGTAGTTAGGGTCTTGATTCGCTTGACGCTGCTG	497 a.u.
TGTACGAAGCTATGCGACGTGTCTATAGTAGTTAGGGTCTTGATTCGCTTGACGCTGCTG	503 a.u.
CTATCGCACTCTAACCACCTGAAAGGTACTATCTTCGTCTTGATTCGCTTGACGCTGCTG	505 a.u.
TGTACGAAGCTATGTCACGAGATTATAGTAGTTAGGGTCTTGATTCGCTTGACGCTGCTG	2220 a.u.
GAATCGATTAATTATAATCACGTTGTTCCTTCCTAGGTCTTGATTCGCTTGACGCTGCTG	2150 a.u.
CCTAACTACTATATTCTCGTGGTATAGCTTCGTACAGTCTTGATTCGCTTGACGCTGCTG	578 a.u.
GAAAGGGCCCTTAAAGGCGTGACTACAAAAAGGTAGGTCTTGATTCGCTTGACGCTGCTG	1720 a.u.
CTATTTTTCACCTTCCACGTGGATATTTTCACGTTCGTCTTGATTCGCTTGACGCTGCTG	2840 a.u.
GAACCCACTAGTAATCACCTGCATCTATATAAGTAGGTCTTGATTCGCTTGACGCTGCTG	937 a.u.
CTAGACAGAGTTTATCAGCTGTATAGAGTAATCTTCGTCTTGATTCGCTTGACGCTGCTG	591 a.u.
CTAGGTAGTAACTATCCTGATGTTGATCCTAGTTTCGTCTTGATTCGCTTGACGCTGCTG	504 a.u.
CTATGGAACAAATGTGTCACCAAGGTTGGAACATTCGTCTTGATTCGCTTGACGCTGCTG	512 a.u.
CTAATGACCCACTCAGGTGTTAAAGTGTGTCATTTCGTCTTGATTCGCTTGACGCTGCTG	556 a.u.
GAATTAATATTTCAGTGGGTGACGTTAGGTAATTAGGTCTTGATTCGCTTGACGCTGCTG	551 a.u.
CTAGCGCTGCTAAATCATGTGAGTTTAGCGCGTTTCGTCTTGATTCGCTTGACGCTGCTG	981 a.u.

Study 3
Target: Sal-like protein 4, full length isoform A (SALL4, Homo sapiens, UniProt Q9UJQ4, residues 1-1053)
Chain of UniProt Q9UJQ4 (whole entry, looked up): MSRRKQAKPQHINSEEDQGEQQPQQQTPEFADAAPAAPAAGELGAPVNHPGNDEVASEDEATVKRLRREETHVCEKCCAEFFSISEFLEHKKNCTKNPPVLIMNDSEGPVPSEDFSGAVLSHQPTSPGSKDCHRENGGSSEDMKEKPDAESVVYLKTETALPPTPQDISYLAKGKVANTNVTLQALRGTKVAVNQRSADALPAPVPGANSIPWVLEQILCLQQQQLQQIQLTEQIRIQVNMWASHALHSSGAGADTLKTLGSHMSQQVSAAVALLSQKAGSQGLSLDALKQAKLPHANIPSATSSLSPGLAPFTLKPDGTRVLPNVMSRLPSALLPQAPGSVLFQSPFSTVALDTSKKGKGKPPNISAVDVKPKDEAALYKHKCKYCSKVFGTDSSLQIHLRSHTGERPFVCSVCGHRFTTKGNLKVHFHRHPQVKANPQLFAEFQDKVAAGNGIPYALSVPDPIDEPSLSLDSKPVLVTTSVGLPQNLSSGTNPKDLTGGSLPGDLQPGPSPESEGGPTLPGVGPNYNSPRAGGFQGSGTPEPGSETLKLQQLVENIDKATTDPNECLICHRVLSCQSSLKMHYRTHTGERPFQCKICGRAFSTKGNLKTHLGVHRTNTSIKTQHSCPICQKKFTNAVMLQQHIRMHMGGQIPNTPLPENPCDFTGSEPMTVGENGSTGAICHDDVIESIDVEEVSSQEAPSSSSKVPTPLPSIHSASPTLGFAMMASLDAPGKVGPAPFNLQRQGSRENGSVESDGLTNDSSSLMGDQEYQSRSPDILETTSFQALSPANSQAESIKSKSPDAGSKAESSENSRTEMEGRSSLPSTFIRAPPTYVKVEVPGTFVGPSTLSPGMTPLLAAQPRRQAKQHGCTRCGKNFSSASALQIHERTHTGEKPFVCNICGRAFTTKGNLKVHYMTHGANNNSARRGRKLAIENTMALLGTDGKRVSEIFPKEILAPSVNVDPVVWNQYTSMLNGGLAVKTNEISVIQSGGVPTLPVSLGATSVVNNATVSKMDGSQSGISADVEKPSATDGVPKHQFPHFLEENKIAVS
Technique: universal PBM
Form: double-stranded DNA, one strand shown
Matrix: in vitro
Tested at: 600 nM
Notes: 8-mer, flanks averaged, mean of replicates
Reading: higher = stronger binding
Strand	E-score
GTATACAA	0.282
ACATAGTG	0.125
GAGCGTAC	-0.0856
CCCAGGTC	-0.277
GATGAGGA	-0.00649
TTGTGAAA	0.183
AGGGCGGC	-0.383
CATGTCCC	-0.145
CGCGGGCA	-0.267
CGATTAGA	0.0908
GAATCCTC	-0.179
CCCCTCGA	-0.252
CCTAGTCC	-0.193
AGCGTGGG	-0.299
AGAGTTTC	-0.103
CATTTCGA	0.101

Study 4
Target: RNA binding protein fox-1 homolog 2, RRM domain, GST-SBP tag (RBFOX2, Homo sapiens, UniProt O43251-10, residues 100-194)
Technique: RNA Bind-n-Seq
Form: RNA
Matrix: in vitro
Tested at: 365 nM
Notes: natural RNA segment, single round, ends assumed
Relative to: no-protein control
Reading: higher = stronger binding
Target sequence (chain): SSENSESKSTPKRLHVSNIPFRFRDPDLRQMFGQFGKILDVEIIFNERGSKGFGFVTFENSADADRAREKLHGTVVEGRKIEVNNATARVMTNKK
Strand	RBNS enrichment (R)
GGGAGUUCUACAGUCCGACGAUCCAGAGAUAAGCAAAACACAGUUCCUCUCGUGCAGAAGGUUAGAAUCUAUUUUUUUUUUUGACAGAGUCUUGCUCUGUCACCCAGGCUGGCGUACAGUGGUACGAUCUCAGUGGAAUUCUCGGGUGCCAA	0.439
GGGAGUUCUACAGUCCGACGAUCGUCUCCUUGACUUGUACCGCCUUCUCCUCUGUCCAGGAGGCCGGGAUCAGGCUGUUGCCAUGGAAGUUCAGGGCCAUAGACUGCCCCACUUAAACUCUUGUCAGUCUGGGUGGAAUUCUCGGGUGCCAA	0.31
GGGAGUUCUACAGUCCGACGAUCACAAGUUAAAAAUAUAAAUUAAACAUUGGCCUUCUAGUGUGGUGUUUAUGAGCAUCUGGAAGAGCAAAUUCUAACUCCUGUCCAAGUGACAGACUGGAAUAUUUCUUAGGUGGAAUUCUCGGGUGCCAA	0.678
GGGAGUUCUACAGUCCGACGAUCACAGCAAGCUCCAGCUGUUGGAAGGCUUAGAAAGAAAAUAUGAGGACAAUCAAAAAUACUUAGAAGAUAAAGCUCAAGAAUUGGUGCGACUGGAAGGAGAGGUUCGCUCCUGGAAUUCUCGGGUGCCAA	0.382
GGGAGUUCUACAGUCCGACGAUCAGCAGCUGCAGCAAAAUCUAGGGGUGUAAGUGUAUCAGGACUUAUGUGACUUAUAUUUUGGGGAGAUGAGGGUUGGGUUUUUUUUUUAAUGCUACGUGACAGUUUGAAACUGGAAUUCUCGGGUGCCAA	0.87
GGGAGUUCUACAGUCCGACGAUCCCCAAGGCACCAGUCACACAAGCUGAUGGGCGUCUUGGCUCUGCCGUCAUGUGGAUGUUAUUGUCGCGCGCGUCUAUAAUUACAAGGUUUUAUUCCUAUUUAAUGUUAUUUGGAAUUCUCGGGUGCCAA	0.307
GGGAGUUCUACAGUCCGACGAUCUUCCCUUGACUGGAUCCCAAGUAGCUUGGAAGUUUUUGUGCCCAGGAGAGUAAAUAACUGUGAACAAGAGGCUCUGCCCUUAGGUCUUUGUGGCUGUUUAAGUCACCAACUGGAAUUCUCGGGUGCCAA	0.36
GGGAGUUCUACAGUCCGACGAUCAAUAUCAGUUACUCAGCCCUGGGCCCCACCACCUAGGCCACUCCUCCAAAGGAAGUCUAGGAGCUGGGAGGAAAAGAAAAGAGGGGAAAAUGAGUUUUUAUGGGGCUGAAUGGAAUUCUCGGGUGCCAA	0.412

Some of these lines once more (study 1):
Strand	E-score
TAGTGCCA	0.0784
ATGTAGCA	0.0591
GCGCTGCC	0.203
AACGGAAA	-0.0852
